Measured values from different studies.
Every numbered part comes from another study and shows a few of its results, in no order. Numbers after ± are the reported error.
Sequence of UniProt P02708 (whole entry, looked up): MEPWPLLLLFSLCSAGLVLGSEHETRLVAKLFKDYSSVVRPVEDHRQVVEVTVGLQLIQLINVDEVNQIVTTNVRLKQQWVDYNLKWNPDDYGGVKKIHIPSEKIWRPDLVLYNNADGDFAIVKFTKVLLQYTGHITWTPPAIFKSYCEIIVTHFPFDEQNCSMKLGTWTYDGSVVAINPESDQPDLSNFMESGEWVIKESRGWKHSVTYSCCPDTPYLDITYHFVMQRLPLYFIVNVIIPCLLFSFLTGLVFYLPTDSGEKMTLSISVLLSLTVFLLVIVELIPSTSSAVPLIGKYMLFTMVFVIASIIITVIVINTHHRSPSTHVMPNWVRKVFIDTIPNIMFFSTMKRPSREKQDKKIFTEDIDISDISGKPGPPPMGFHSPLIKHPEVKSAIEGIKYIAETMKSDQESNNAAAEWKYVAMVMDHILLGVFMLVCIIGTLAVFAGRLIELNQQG
Sequence of UniProt P07510 (whole entry, looked up): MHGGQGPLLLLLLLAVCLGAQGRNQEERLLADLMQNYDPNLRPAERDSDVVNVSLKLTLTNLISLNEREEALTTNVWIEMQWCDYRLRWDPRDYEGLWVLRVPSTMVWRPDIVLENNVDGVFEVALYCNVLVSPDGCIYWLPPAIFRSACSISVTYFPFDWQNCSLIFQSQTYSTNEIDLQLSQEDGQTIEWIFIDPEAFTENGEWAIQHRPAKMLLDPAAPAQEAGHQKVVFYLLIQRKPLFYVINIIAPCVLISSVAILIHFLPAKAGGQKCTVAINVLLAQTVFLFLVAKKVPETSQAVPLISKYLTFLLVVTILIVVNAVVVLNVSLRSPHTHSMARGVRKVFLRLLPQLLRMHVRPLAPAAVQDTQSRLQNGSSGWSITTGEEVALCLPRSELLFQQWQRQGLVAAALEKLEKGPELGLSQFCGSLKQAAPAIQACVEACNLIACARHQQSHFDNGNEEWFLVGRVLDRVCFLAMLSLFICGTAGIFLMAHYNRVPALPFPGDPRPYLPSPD
Sequence of UniProt Q07001 (whole entry, looked up): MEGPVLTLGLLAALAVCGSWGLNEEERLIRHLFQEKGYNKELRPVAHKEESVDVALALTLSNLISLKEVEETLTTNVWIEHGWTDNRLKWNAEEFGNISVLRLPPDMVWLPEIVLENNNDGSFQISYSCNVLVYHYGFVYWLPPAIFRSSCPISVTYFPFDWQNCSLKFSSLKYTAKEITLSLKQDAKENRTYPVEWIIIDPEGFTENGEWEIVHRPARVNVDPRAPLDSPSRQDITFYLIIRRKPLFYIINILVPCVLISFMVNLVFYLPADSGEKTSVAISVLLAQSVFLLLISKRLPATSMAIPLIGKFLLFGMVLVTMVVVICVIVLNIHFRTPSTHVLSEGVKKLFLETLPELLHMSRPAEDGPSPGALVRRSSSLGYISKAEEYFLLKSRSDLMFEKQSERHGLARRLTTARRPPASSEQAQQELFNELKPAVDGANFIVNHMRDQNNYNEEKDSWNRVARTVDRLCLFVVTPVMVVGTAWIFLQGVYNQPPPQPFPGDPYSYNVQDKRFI

Study 1 — effect on: enzyme activity; mode: inhibitor; concentration: 20 µM; setting: primary screen
Target: Replicase polyprotein 1ab, main protease (rep, Severe acute respiratory syndrome coronavirus 2, UniProt P0DTD1)
SMILES | inhibition
COC(=O)C1=C(C)NC(C)=C(C(=O)O[C@H]2CCN(Cc3ccccc3)C2)[C@H]1c1cccc([N+](=O)[O-])c1 | 26.5%
CCN1CCN(C(c2ccc(C(F)(F)F)cc2)c2ccc3cccnc3c2O)CC1 (stereo not drawn) | 100%
CC(C)(C)c1ccc(S(=O)(=O)/C=C/C#N)cc1 | 100%

Study 2 — effect on: enzyme activity; mode: inhibitor; concentration: 20 µM
Target: Replicase polyprotein 1ab, polymerase (rep, Severe acute respiratory syndrome coronavirus 2, UniProt P0DTD1)
SMILES | inhibition [%]
CC#CCOC(=O)c1c(C)nc2sc3c(c2c1N)CCC(O)C3 (stereo not drawn) | -0.98
O=C(NNC(=O)c1ccc(CNS(=O)(=O)c2ccc(F)c(Cl)c2)cc1)c1ccccc1 | -1.87
Cc1c(CN2CCN(C(=O)[C@H](C)O)CC2)sc2c(N3CCOCC3)nc(-c3cnc(N)nc3)nc12 | -2.75
COc1ccc(Nc2nccc(NCCO)n2)cc1 | 9.46
O=C(NC1CCN(CCc2c[nH]c3ccccc23)CC1)c1ccccc1 | -7.15
Cc1ccc(F)c(NC(=O)Nc2ccc(-c3cccc4[nH]nc(N)c34)cc2)c1 | 0.83
c1coc(CNc2ncnc3[nH]cnc23)c1 | 1.91
Oc1ccc(-c2nc3cc(O)cc(Br)c3o2)cc1 | 1.49
CN(C)CCc1c[nH]c2ccc(CS(=O)(=O)N3CCCC3)cc12 | 1.97
CCC(=N\O)/C(C)=C/c1ccc(F)cc1 | -1.49
N=C1N[C@H]2[C@H](CS[C@H]2CCCCC(=O)O)N1 | 4.75
CCCCCCCCCCCCCCCCCC(=O)OCC(O)CO (stereo not drawn) | -8.44
CC[C@@]1([C@H]2O[C@H]([C@H]3O[C@@](O)(CO)[C@H](C)C[C@@H]3C)C[C@H]2C)CC[C@H]([C@@]2(C)CC[C@]3(C[C@H](O)[C@@H](C)[C@@H]([C@H](C)[C@H](OC)[C@@H](C)C(=O)O)O3)O2)O1 | -2.88
C#CC[C@H](c1nc2cc(Cl)ccc2c(=O)n1Nc1ccccc1)N(CCCN)C(=O)c1cccc(Cl)c1F | 4.37
CCC(C)(Oc1ccc(C2(c3ccc(OC(C)(CC)C(=O)O)cc3)CCCCC2)cc1)C(=O)O (stereo not drawn) | -7.01
c1ccc(Oc2cccnc2)cc1 | 0.02
O=C(Nc1ccc(C(F)(F)F)cn1)N1CCN(c2ncccc2C(F)(F)F)CC1 | -17.7
CC(C)=CCC[C@](C)(O[C@@H]1O[C@H](CO)[C@@H](O)[C@H](O)[C@H]1O)[C@H]1CC[C@]2(C)[C@@H]1[C@H](O)C[C@@H]1[C@@]3(C)CC[C@H](O[C@@H]4O[C@H](CO)[C@@H](O)[C@H](O)[C@H]4O[C@@H]4O[C@H](CO)[C@@H](O)[C@H](O)[C@H]4O)C(C)(C)[C@@H]3CC[C@]12C | -9.6
CC(C)(CO)CCCCCCC(C)(C)CO | 8.55
O[C@H]1CC[C@H](Nc2ncc3nc(Nc4c(F)cc(F)cc4F)n([C@H]4CCOC4)c3n2)CC1 | -4.52
C[C@@H]1O[C@@H](OC[C@H]2O[C@@H](Oc3c(-c4ccc(O)c(O)c4)oc4cc(O)cc(O)c4c3=O)[C@H](O)[C@@H](O)[C@@H]2O)[C@H](O)[C@H](O)[C@H]1O | 28.3
NCCCNCCSP(=O)(O)O | -0.05
CN(C)C/C=C(/c1ccc(Br)cc1)c1cccnc1 | 4.68
CCCCC(=O)OCC(=O)[C@]1(O)Cc2c(O)c3c(c(O)c2[C@@H](O[C@H]2C[C@H](NC(=O)C(F)(F)F)[C@H](O)[C@H](C)O2)C1)C(=O)c1c(OC)cccc1C3=O | 5.79
O=[N+]([O-])c1cn2c(n1)OC[C@@H](OCc1ccc(-c3ccc(OC(F)(F)F)cc3)nc1)C2 | 2.36

Other studies, line by line
rep main protease: Replicase polyprotein 1ab, main protease (rep, Severe acute respiratory syndrome coronavirus 2, UniProt P0DTD1)
Structure (SMILES) | target or system | test | system | conditions | how to read | quantity | result
Cc1nn(-c2ccc(Cl)cc2)c2c1C(c1c(Cl)cccc1Cl)C(C#N)=C(N)O2 (stereo not drawn) | SARS-CoV-2 |  | Vero C1008 | 1 µM | reference: positive control | viral titre log reduction | 0.0237 log10
O=C(/C=C/c1ccc(O)c(O)c1/C=C/c1ccc(O)c(O)c1)O[C@H](Cc1ccc(O)c(O)c1)C(=O)O | SARS-CoV-2 | cytopathic effect | Vero E6 | 50 µM, first run |  | inhibition | 0%
Cc1oncc1C(=O)Nc1ccc(C(F)(F)F)cc1 | HEK-293T | pseudovirus infection, FDA-approved drug library screen | VSV pseudotyped with SARS-CoV-2 spike | 10 µM, 16 h | reference: vehicle-treated | GFP-positive cells | 86.4%
CCc1cc(=O)n2c(=O)/c(=C/c3ccc(-c4ccccc4)cc3)sc2n1 | Chikungunya virus | virus-induced cell death, MTS/PMS | BGM, Indian Ocean 899 | 20 µg/mL |  | inhibition | 5%
COc1cc(C2C(C#N)=C(N)Oc3c2c(C)nn3-c2ccc(Cl)cc2)cc(OC)c1OC (stereo not drawn) | SARS-CoV-2 |  | Vero C1008 | 1 µM | reference: positive control | viral titre log reduction | 0.145 log10
Cc1cn([C@H]2C=C[C@@H](COP(=O)(O)OP(=O)(O)OP(=O)(O)O)O2)c(=O)[nH]c1=O | Gag-Pol polyprotein, reverse transcriptase (gag-pol, Human immunodeficiency virus type 1 group M subtype B, UniProt P04585, K652R) | inhibitor | HIV-1 |  |  | IC50 | 16.7 ± 1.34 µM
CC(=O)COC(=O)/C=C(C)/C=C/C=C(C)/C=C/C1=C(C)CCCC1(C)C | SARS-CoV-2 | viral replication | Vero E6, USA-WA1/2020 | 2.5 µM |  | inhibition | 55.8%
COc1cc(C(=O)OCCCN2CCCN(CCCOC(=O)c3cc(OC)c(OC)c(OC)c3)CC2)cc(OC)c1OC | SARS-CoV-2 | viral replication, GFP plate reader screen |  | cell-based |  | EC50 | > 100 µM
COC(=O)N[C@H](C(=O)N[C@@H](Cc1ccccc1)[C@@H](O)CN(Cc1ccc(-c2ccccn2)cc1)NC(=O)[C@@H](NC(=O)OC)C(C)(C)C)C(C)(C)C | rep main protease | reporter gene (Gaussia luciferase), inhibitor |  | 20 µM |  | inhibition | 3.56%
CC1(C)CCC2=C(O1)c1ccccc1C(=O)C2=O | SARS-CoV-2 | virus-induced cytopathic effect | Vero E6, USA-WA1/2020 | 72 h |  | EC50 | > 20 µM
CCC(C)NC(=O)c1ccccc1NC(=O)c1ccc(C)c(S(=O)(=O)Nc2cccc(NC(=O)c3ccccc3)c2)c1 (stereo not drawn) | SARS-CoV-2 | plaque formation, plaque reduction | Vero E6 | 72 h |  | EC50 | > 50 µM
COc1ccc([C@H](Cc2ccncc2)c2ccccc2)cc1OC1CCCC1 | SARS-CoV-2 | viral replication, high-content imaging screen | BetaCov/Belgium/GHB-03021/2020 | cell-based |  | EC50 | > 100 µM
CCCN1CCN(CCCNC(=O)c2cc3c(Cl)nc4ccccc4c3s2)CC1 | SARS-CoV-2 | cytopathic effect, cell-based CPE | USA_WA1/2020 | round 2, 5-point dilution |  | maximal response | 78.9%
Cc1ccc(NC(=O)c2cc3c(=O)n4cccc(C)c4nc3n2C)cc1Cl | SARS-CoV-2 | viral replication, qPCR | Vero E6 |  |  | EC50 | 0.104 ± 0.00344 µM
Nc1ncnc2c([C@@H]3N[C@H](CO)[C@@H](O)[C@H]3O)c[nH]c12 | Nipah henipavirus | viral replication | HeLa, Malaysia | 0.4 µM |  | inhibition | 9.2%
CCCCCCc1ccc(O)cc1O | rep main protease | reporter gene (Gaussia luciferase), inhibitor |  | 20 µM |  | inhibition | -1.08%
Cn1c(C(=O)Nc2ccc(Cl)cc2)cc2c(=O)n3ccccc3nc21 | SARS-CoV-2 | viral replication, qPCR | Vero E6 |  |  | EC50 | 0.109 µM
CCC(C)C(NC(=O)C1N2C(=O)c3ccccc3C2SC1(C)C)C(=O)NC(CO)C(C)C (stereo not drawn) | SARS-CoV-2 | plaque formation, plaque reduction | Vero E6 | 72 h |  | EC50 | 3 ± 1.6 µM
CCN(Cc1cn(C[C@H]2O[C@@H](n3cnc4c(N)ncnc43)[C@H](O)[C@@H]2O)nn1)S(=O)(=O)c1ccc(Cl)cc1 | Replicase polyprotein 1ab, nsp14 N7-methyltransferase (rep, Severe acute respiratory syndrome coronavirus 2, UniProt P0DTD1) | N7-methyltransferase activity, inhibitor, radioactive filter binding |  | 50 µM, 0.5 h, 30 °C, added: GpppAC4 RNA, SAM |  | remaining binding | > 50%
COc1ccc(C[C@@H]2c3cc(Oc4cc(C[C@@H]5c6cc(O)c(OC)cc6CCN5C)ccc4O)c(OC)cc3CCN2C)cc1 | SARS-CoV-2 | viral replication | Vero E6 | 3.125 µM |  | CPE inhibition | 0%
CCc1ccc(Sc2cc(C(=O)NCCCN3CCCC(C)C3)c3ccccc3n2)cc1 (stereo not drawn) | SARS-CoV-2 | cytopathic effect | USA_WA1/2020 |  |  | AC50 | 12.6 µM
NC/C(=C\F)COc1cccc(Cn2c(=S)[nH]c(=O)c3[nH]cnc32)c1 | CHRNA1/CHRNG/CHRND (Homo sapiens, UniProt P02708+P07510+Q07001) | radioligand binding |  | 10 µM, added: bungarotoxin |  | inhibition | < 50%
CC(C)CC(NC(=O)OCc1ccccc1)C(=O)NC(C(=O)NCC(=O)C=[N+]=[N-])C(C)C (stereo not drawn) | SARS-CoV-2 | viral replication | 293T-ACE2, USA-WA1/2020 |  |  | EC90 | 0.251 µM

For quick reference, copied from above (study 2):
SMILES | inhibition [%]
O=C(NNC(=O)c1ccc(CNS(=O)(=O)c2ccc(F)c(Cl)c2)cc1)c1ccccc1 | -1.87
Cc1c(CN2CCN(C(=O)[C@H](C)O)CC2)sc2c(N3CCOCC3)nc(-c3cnc(N)nc3)nc12 | -2.75
COc1ccc(Nc2nccc(NCCO)n2)cc1 | 9.46
O=C(NC1CCN(CCc2c[nH]c3ccccc23)CC1)c1ccccc1 | -7.15
Cc1ccc(F)c(NC(=O)Nc2ccc(-c3cccc4[nH]nc(N)c34)cc2)c1 | 0.83
c1coc(CNc2ncnc3[nH]cnc23)c1 | 1.91
Oc1ccc(-c2nc3cc(O)cc(Br)c3o2)cc1 | 1.49
CN(C)CCc1c[nH]c2ccc(CS(=O)(=O)N3CCCC3)cc12 | 1.97
